# Measured values of several laboratories.
# Protocols differ between the studies behind these lines. ± gives the spread as reported.
SMILES,target or system,test,test system,conditions,how to read,endpoint,value
Cc1cc(Nc2ccc(S(F)(F)(F)(F)F)cc2)n2nc(C(C)(F)F)nc2n1,Plasmodium vivax,12-lead ECG,malaria patients,"oral, 800 mg, increase above 30 ms",,patients with QTcB increase,0%
CC(C)C[C@H](NC(=O)[C@@H](Cc1c[nH]c2ccccc12)NC(=O)[C@H](Cc1ccc(O)cc1)NC(=O)[C@H](CO)NC(=O)[C@H](Cc1c[nH]c2ccccc12)NC(=O)[C@H](Cc1c[nH]cn1)NC(=O)[C@@H]1CCC(=O)N1)C(=O)N[C@@H](CCCNC(=N)N)C(=O)N1CCC[C@H]1C(=O)NCC(N)=O,,,"Chinese girls, precocious puberty, plasma","intramuscular, 22.5 mg, 8640 h, month 12, mean",,plasma concentration,0.0288 ng/mL
O=C(COc1ccc(Cl)cc1)NC12CC(c3nnc([C@H]4C[C@@H](OC(F)(F)F)C4)o3)(C1)C2,,,human both sexes,"oral, 100 mg once daily, 14 days",,postural dizziness participants,14.3%
Clc1ccc(C(c2c[nH]c3ccccc23)c2c[nH]c3ccccc23)cc1,COS-7,,,"30 µM, 24 h, 0.1% DMSO, unit not given",reference: vehicle control,apoptotic cells,7.1 ± 1.57
COc1cccc(-c2n[nH]c(SCc3ccccn3)n2)c1OC,,,"Sprague-Dawley rat, female, plasma","oral gavage, 30 mg/kg",,AUC(0-last),73500 ng·h/mL
CC(=O)CC(c1ccccc1)c1c(O)c2ccccc2oc1=O (stereo not shown),,,"Sprague-Dawley rat, male, plasma","oral, 0.2 mg/kg, together with: miconazole",reference: cpd alone,AUC,100%
CN1CCC[C@H](CN2c3ccccc3Sc3ccccc32)C1.Cl,,,"Wistar rat female, plasma","oral, 16 mg/kg",,Tmax,6 h
N#Cc1ccc2c(c1)[C@H]1CCCN(C(=O)c3ccc4[nH]cnc4c3)[C@H]1C2,,,human,"240 mg, end of trial",reference: baseline,ACTH level change,-1.4 pmol/L
Cc1cc(O)c2c(c1)C(=O)c1cccc(O)c1C2=O,HepaRG co-cultured with HK-2,MTT,,"33.33 µM, 24 h",reference: untreated control,cell viability,96.1 ± 11%
N#C[C@@]1(c2ccc3c(N)ncnn23)O[C@H](CO)[C@@H](O)[C@H]1O,,plasma protein binding,rat plasma,"10 µM, time not given",,recovery,96.5%
CSc1ccccc1C(=O)NCCn1cc(C(=O)NCc2cccc(C)n2)c(=O)c2cc3c(cc21)OC(F)(F)O3,,,"Sprague-Dawley rat, male, plasma","intramuscular, 30 mg/kg of parent drug",,Tmax,16.2 ± 7.85 h
O=C(O)[C@H]1O[C@@H](Oc2c(-c3ccc(O)cc3)oc3cc(O)cc(O)c3c2=O)[C@H](O)[C@@H](O)[C@@H]1O,,,human plasma,mean,,plasma concentration,1240 nM
O=C(O)CCC(=O)O.[2H]C([2H])([2H])Oc1cc(C)c2[nH]ccc2c1CN1CC[C@@H](C2CC2)C[C@H]1c1ccc(C(=O)O)cc1,,,healthy Chinese subjects,"50 mg twice daily, multiple ascending dose",,TEAE elevated monocyte,0%
O=C(O)c1ccc(O)c(O)c1,,,human plasma,"median, both sexes",,plasma concentration,387 nM
C[C@@H]1CCO[C@H]2Cn3cc(C(=O)NCc4ccc(F)cc4F)c(=O)c(O)c3C(=O)N12,,,"human paediatric patients, weight sample C to under sample D kg, plasma","oral, 25 mg film-coated tablet, steady state, geometric mean, population PK post-hoc, N 26",,AUC(0-24),32500 ng·h/mL
O=C(O)C=Cc1ccc(O[C@@H]2O[C@H](C(=O)O)[C@@H](O)[C@H](O)[C@H]2O)cc1,,,human plasma,mean,,plasma concentration,2210 nM
CCc1cc(C(=O)NC)c2nccc(N3CCc4c(cc(Cn5ccnc5)cc4-c4cn(C)nc4C(F)(F)F)C3=O)c2c1,,,"Sprague Dawley rat, male, plasma","oral, 100 mg/kg single dose, day 1, toxicokinetic satellite group",,AUC extrapolated fraction,0.9%
CNCc1ccc(-c2[nH]c3cc(F)cc4c3c2CCNC4=O)cc1,,,human patients,"oral, 600 mg twice daily, grade 3",,incidence of AST/ALT increase,11.5%
CC(C)NCC(O)COc1cccc2ccccc12 (stereo not shown),,PAMPA,artificial membrane,"10 µM, 4 h",,permeability coefficient,> 1 ×10⁻⁶ cm/s
C[C@@H]1CN(c2c(F)c(N)c3c(=O)c(C(=O)O)cn(C4CC4)c3c2F)C[C@H](C)N1,,starch gel membrane permeability,Gram-negative envelope surrogate,"200 µM, 10 min, pH 7.4",,amount permeated,0.32 nmol
CCN(CC)CCCC(C)Nc1ccnc2cc(Cl)ccc12 (stereo not shown),COS-7,,,"50 µM, 24 h, 0.1% DMSO, unit not given",reference: vehicle control,apoptotic cells,0.84 ± 0.41
C[C@@H](N)C1CCN(S(=O)(=O)c2cccc3cnccc23)CC1,,,"healthy volunteers, fasted, plasma","oral, 75 mg",,duration of quantifiable plasma levels,≤ 4 h
O=C(Nc1cnccc1Cl)N1CCN(Cc2ccc3c(c2)OC(F)(F)O3)CC1,,,"elderly men and women, plasma","oral, 100 mg once daily, day 10",,t1/2,13.2 h
C=CC(=O)Nc1cc(Nc2nccc(-c3cn(C)c4ccccc34)n2)c(OC)cc1N(C)CCN(C)C,,storage stability,human dried blood spot,"10 d, on ice, LQC level",,recovery,70.4%
O=C(O)c1cc(O)c2c(c1)C(=O)c1cccc(O[C@@H]3O[C@H](CO)[C@@H](O)[C@H](O)[C@H]3O)c1C2=O,HepaRG co-cultured with HK-2,MTT,,"133.33 µM, 24 h",reference: untreated control,cell viability,94.4 ± 6.73%

# For quick reference, copied from above:
SMILES,target or system,test,test system,conditions,how to read,endpoint,value
O=C(COc1ccc(Cl)cc1)NC12CC(c3nnc([C@H]4C[C@@H](OC(F)(F)F)C4)o3)(C1)C2,,,human both sexes,"oral, 100 mg once daily, 14 days",,postural dizziness participants,14.3%
Clc1ccc(C(c2c[nH]c3ccccc23)c2c[nH]c3ccccc23)cc1,COS-7,,,"30 µM, 24 h, 0.1% DMSO, unit not given",reference: vehicle control,apoptotic cells,7.1 ± 1.57
